Measurements of several laboratories.
Each numbered part is a random draw from the data of one study; scales do not carry over between parts.

Sample 1
Target: Interferon regulatory factor 7, full length, phosphomimetic (IRF7, Homo sapiens, UniProt Q92985, residues 1-503, S471D/S472D/S475D/S476D/S477D/S483D/S484D/S487D)
Method: protein-binding microarray
Form: double-stranded DNA, one strand shown
Sample: in vitro
Concentration: 2200 nM top
Setting: 60-bp whole probe
With: salmon DNA 0.4 mg/ml
Relative to: random background probes
Reading: higher = stronger binding
Shared flanks, not repeated: GCCTAGCACT … GTCTTGATTCGCTTGACGCTGCTG
Target sequence (chain): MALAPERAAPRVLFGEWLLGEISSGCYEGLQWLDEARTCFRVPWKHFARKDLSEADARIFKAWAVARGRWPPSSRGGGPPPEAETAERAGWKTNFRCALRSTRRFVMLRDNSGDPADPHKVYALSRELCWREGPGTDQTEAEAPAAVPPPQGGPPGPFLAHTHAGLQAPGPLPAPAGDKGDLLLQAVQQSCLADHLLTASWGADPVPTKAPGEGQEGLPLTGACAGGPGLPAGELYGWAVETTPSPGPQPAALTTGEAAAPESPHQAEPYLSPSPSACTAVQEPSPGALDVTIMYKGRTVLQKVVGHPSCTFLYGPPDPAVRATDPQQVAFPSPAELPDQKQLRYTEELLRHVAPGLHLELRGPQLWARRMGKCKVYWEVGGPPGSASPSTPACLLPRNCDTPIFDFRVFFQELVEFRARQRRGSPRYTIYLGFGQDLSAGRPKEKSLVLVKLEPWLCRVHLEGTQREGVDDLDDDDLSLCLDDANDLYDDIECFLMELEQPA
Sequence	fitted relative affinity [z-score]
TAGGTTCCGGTTACGGTTAGTGCTAG	2.22
TAGGTATCGACTATAGGTTAGTGCTA	-0.112
CATTTTTCTCCTATTTAACTGTGCTA	2.32
TAGAAATCAGACTGGATTAGTGCTAG	-0.784
TAGATATCAGGATCGATTAGTGCTAG	-0.0155

Sample 2
Target: Sal-like protein 4, full length isoform A (SALL4, Homo sapiens, UniProt Q9UJQ4, residues 1-1053)
UniProt Q9UJQ4, sequence (whole entry, looked up): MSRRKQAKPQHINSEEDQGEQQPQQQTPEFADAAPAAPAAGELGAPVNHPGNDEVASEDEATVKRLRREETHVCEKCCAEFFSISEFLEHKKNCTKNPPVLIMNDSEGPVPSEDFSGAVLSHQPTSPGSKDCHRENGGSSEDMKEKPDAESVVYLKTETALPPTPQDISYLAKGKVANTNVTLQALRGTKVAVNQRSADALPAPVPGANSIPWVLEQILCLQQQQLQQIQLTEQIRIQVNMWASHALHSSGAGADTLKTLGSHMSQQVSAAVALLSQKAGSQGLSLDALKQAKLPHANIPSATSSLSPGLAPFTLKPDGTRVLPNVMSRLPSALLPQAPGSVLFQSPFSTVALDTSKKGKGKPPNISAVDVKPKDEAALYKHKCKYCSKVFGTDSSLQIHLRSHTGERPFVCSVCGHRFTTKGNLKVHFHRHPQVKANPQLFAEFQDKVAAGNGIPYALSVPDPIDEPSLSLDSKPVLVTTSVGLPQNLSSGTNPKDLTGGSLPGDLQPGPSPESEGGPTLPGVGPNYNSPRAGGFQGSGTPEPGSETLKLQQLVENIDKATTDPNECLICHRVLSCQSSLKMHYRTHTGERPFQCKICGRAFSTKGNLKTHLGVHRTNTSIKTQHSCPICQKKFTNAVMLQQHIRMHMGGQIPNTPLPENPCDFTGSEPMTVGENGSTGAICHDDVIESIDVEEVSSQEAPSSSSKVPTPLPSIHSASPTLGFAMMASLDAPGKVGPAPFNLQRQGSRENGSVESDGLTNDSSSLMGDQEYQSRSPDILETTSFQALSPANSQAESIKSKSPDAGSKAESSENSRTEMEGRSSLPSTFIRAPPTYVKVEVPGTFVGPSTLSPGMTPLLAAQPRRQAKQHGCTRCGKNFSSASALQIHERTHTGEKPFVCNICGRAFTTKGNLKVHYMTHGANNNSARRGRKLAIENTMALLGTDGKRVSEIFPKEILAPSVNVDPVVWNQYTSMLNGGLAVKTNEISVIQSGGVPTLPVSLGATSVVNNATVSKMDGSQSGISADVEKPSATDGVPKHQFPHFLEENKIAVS
Method: universal PBM
Form: double-stranded DNA, one strand shown
Sample: in vitro
Concentration: 600 nM
Setting: 8-mer, flanks averaged, mean of replicates
Reading: higher = stronger binding
Sequence	E-score
AGTTAGAG	-0.00781
AACGCAGA	0.0413
TGCATCCA	-0.0432
ACATGACC	0.0261
CTCCGTTC	-0.15
GTCGGATA	-0.0234
GGGTCTAA	-0.155

Sample 3
Target: Centromere-binding protein 1, full length, N-terminal tag (CBF1, Saccharomyces cerevisiae, UniProt P17106, residues 1-351)
UniProt P17106, sequence (whole entry, looked up): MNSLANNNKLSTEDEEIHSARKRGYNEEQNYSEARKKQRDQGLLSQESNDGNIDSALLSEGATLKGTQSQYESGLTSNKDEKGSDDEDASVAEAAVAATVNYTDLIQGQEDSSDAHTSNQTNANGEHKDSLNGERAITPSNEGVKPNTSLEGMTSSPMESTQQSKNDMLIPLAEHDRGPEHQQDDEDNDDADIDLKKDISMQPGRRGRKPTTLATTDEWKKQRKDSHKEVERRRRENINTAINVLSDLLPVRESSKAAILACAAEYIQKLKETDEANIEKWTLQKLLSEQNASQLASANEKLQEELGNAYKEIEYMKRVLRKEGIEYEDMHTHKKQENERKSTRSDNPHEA
Method: protein-binding microarray
Form: double-stranded DNA, one strand shown
Sample: in vitro
Concentration: 0.8 µM
Setting: whole 60-bp probe, no competitor
Reading: higher = stronger binding
Sequence	fluorescence intensity [a.u.]
CTAAATAATAAAATCGGGGTGACGCAAGTATGATTCGTCTTGATTCGCTTGACGCTGCTG	538
CTAGTCAGGTTTCACGTGGCAACTACAAGAAAATTCGTCTTGATTCGCTTGACGCTGCTG	3080
GAAGAAAAACAACTAGGGGTGATGCTGTTTTGCTAGGTCTTGATTCGCTTGACGCTGCTG	531
GAAATTTACTGTTATGGTGATGCTATGTTAGTGTAGGTCTTGATTCGCTTGACGCTGCTG	557

Mixed results
Molecule	target	test	test system	setting	how to read	quantity	value
PhoQ, residues 284 288 289 292 302 303 TAVSDG	PhoP, residues 12 14 15 18 19 AWHSL (Escherichia coli, UniProt P23836)	Sort-seq, refers to: YFP reporter	E. coli	PhoQ-PhoP variant library, with: 10 µM Mg2+	relative to: high Mg2+ state, higher = stronger signaling	fold induction	2.05

A few entries again (sample 1):
Sequence	fitted relative affinity [z-score]
TAGATATCAGGATCGATTAGTGCTAG	-0.0155
